Experimental data from different studies.
Numbered parts are unrelated; each lists some results of a single study. Positions count from the first letter of the parent shown.

Series 1 — target: CCND2, cyclin fold, Cln2 fusion (human); technique: yeast growth competition, sequencing; medium: yeast; notes: weak parent motif; baseline: not given; direction: higher = stronger binding
Starting sequence: SCAPER docking peptide (human); SNARRSLNFGGST
| Variant | normalised enrichment score |
| --- | --- |
| SNARRSLQFGGST [N8Q] | 0.251 |
| SNARRSLNFGGSL [T13L] | 0.634 |
| SNCRRSLNFGGST [A3C] | 0.355 |
| SNARRSLEFGGST [N8E] | 0.28 |
| SNARRSLNFGGSK [T13K] | 0.45 |
| SGARRSLNFGGST [N2G] | 0.757 |
| SVARRSLNFGGST [N2V] | 0.324 |
| TNARRSLNFGGST [S1T] | 0.561 |
| SNARRSLNFGGSG [T13G] | 0.588 |
| SNARRQLNFGGST [S6Q] | 0.809 |
| SNARRSRNFGGST [L7R] | -0.146 |
| SNARRSQNFGGST [L7Q] | 0.504 |
| SSARRSLNFGGST [N2S] | 0.382 |
| SNARRSLYFGGST [N8Y] | 0.125 |
| SNARRSLNIGGST [F9I] | 0.257 |
| SNARRSLNFGTST [G11T] | 0.744 |
| SNARRSLNFGAST [G11A] | 0.307 |
| SNWRRSLNFGGST [A3W] | 0.0255 |
| ANARRSLNFGGST [S1A] | 0.443 |
| SNARRSLNFGGVT [S12V] | 0.274 |
| SNARRSMNFGGST [L7M] | 0.386 |
| SNARRSLNFGGSS [T13S] | 0.34 |
| SNATRSLNFGGST [R4T] | 0.226 |
| SNARRSWNFGGST [L7W] | -0.353 |
| SNARRSLNFGGRT [S12R] | -0.0717 |

Series 2 — technique: EMSA with sequencing; molecule type: double-stranded DNA, one strand shown; medium: in vitro; tested at: 10 and 20 nM; baseline: negative control set to 0; direction: higher = stronger binding
Target: Hepatocyte nuclear factor 3-alpha (Foxa1, Mus musculus, UniProt P35582, residues 1-468, full length assumed)
Notes: whole designed probe, mean of two concentrations, ends assumed
All sequences stand within: GTGAGCGGTGCCCATTGATGGGGAAC … TTTCACTGGGATCGTGGGGAC
Construct (chain): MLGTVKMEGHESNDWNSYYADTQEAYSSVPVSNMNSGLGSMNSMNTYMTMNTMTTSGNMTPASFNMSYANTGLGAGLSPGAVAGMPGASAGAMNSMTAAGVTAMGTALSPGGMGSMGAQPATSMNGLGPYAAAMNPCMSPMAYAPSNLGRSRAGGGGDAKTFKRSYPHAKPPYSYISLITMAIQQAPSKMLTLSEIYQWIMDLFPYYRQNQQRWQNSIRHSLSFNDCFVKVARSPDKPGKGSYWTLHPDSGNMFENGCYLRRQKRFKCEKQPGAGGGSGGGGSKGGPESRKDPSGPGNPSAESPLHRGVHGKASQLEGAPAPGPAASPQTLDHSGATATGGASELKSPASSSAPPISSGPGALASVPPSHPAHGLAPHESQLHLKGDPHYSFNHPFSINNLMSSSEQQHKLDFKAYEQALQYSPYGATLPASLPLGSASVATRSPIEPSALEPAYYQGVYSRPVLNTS
| Strand | normalised bound fraction |
| --- | --- |
| ATTACCTATCTTCATTGCAGTTTTCTATGGCTGTATAAATGGAGTACTCTCTTGACACAGGAAGGATGATAATACATTTTTGCTTATTTACTTGTTTACTTTTTCTTTTAATAGGATTGTGCATATGCTAAATGAAGTCCTTAGTAGTATTCAGAAAATCTGCCATCTTCTTTTGATTCACAGGATGCTTTTA | 0.399 ratio |
| CTAGTTCCAGTCTTAGCATGACAATTTCTTCCTGCAACGTACTATTTTCATGCAAGAGGTCTTTTTCTTTCTTATAACTAAGAGAAAGCTAAGTAATCTAAGGGAACTTTTAGTTAGCACTCAATAGATTGATATACCATGATTTCTTCTGAAATTAAAAAATAACATCTGTATTTGTATAATGAAAGAATCC | 0.166 ratio |
| TTTTTTAATAAGAGGGACACTCAGTGAAATTTTTGCGTGAAAATAAGATAAAGTTCTATTGTTCAGCTTTTAATGATAGCATGGAATTCTAAGTAATCTTGGATGAAATACAACTTGTCAGCACAAAAATACTGCCTGTCATAGTCATTTGTGTATAAAATATGACCCGCAGGTTTGAACCATATGGTTACAT | -0.0514 ratio |
| CTGTGCAGAAAAGAGATAGCACAGTAAGACTGAGACTCTTGATACCCACAGAAAGGCTGACCTTTGCCTACAGTCTGCAAACGTCACTGGTAAGTAAACAGCTCCCTACATTGATACAAAACTCTCTAAGTGAAAACAGTGGCTCACTGTGCCTAACGGGTTTATGCTAAAGACCTGTTTTCCTTTCAGGAGT | 0.2 ratio |
| ATCTTCCCCCTCTTCCTTGCCCCACCAGCTCACCTTCCCGGGTTGTTTACTTTGAGTATTTATTTTCAAGCCGGCATTCGTTAACCCTCTTCTGGCGCAAACTGCCAGAGCAAACAGATGAATCATGGTCCTTTGGCGACGCCAGGCTCCGGGAGAGCAAAGCACCGTGTCAGGGCCATGATCCGGGGTGGCC | 0.377 ratio |
| CTGTGTGATGTGGTAATCTAAATTTGAACAGATGCCCCGCATGTTATGTCAATATTTGAATTGCTATTATGGCTATGAATCAATATTTCTTTGTAAACATCCTTATTTCAAGTGGCTTGAATCACAGCCCTATGGTTAAATACACAGACTGTAGTTTAACTGCCTGATTTCATAACCCAACTCCAGCATTCAC | 0.43 ratio |
| TATCTCGTTACATGGCCTTCTTCCTTAGAACTTTTCAATATGGTATTAACTTCCTCATCCCTGATCTTGCCCTTAATTCCCAGTTTAAAGTCTTTGTTTACTTTGGAAATGACTTTTCGCCTGAGTGAAAAAAAAACGTGTTCTCAACCCATTTGTAGACTAACTCAGGCTCTGAAAATGATTGAAGCTGTGG | 0.465 ratio |
| TAAATAGCTGTCTGTGGGAGAGATGACACTGTTGCTATTCAGTGGACTCTAGATATGCAGCCAGATGAACTTTGTGAAGATGAACTTATCAGTGTAATTTAGGAAAGTGGTTGTGATGAAAAGCATGAATGTTCCAGGGGAAATGACTCTGGCAAATTTTTCACATTAAAGGAACTCTTGGAGATACTTCACA | -0.0609 ratio |

Series 3 — technique: DHFR PCA, deep sequencing; medium: yeast; added: (+)-ABA 0.39 µM; baseline: wild-type fitted maximum; direction: higher = stronger binding
Target: ABI1, truncated, D143A, DHFR fusion (Arabidopsis thaliana)
Notes: methotrexate growth selection, single substitutions
Starting sequence: PYL1, truncated, DHFR fusion (Arabidopsis thaliana); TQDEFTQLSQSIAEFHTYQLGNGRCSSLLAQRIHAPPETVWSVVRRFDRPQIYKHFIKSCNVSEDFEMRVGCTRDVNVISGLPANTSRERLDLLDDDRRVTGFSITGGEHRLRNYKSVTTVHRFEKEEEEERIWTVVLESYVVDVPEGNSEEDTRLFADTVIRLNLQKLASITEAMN
| Variant | relative binding score [%] |
| --- | --- |
| D97M | 22.3 |
| D96H | -16.7 |
| R163M | 30.1 |
| Q167V | 14.2 |
| R98F | -0.392 |
| T106H | 8.28 |
| T173E | -3.47 |
| I57Y | -9.2 |
| N22M | 33.9 |
| S27R | 2.6 |
| R88Y | 33.3 |
| D153A | -4.5 |
| Y141F | -6.15 |
| Q51D | 43.5 |
| V136F | 4.7 |
| L164F | 21.8 |
| L29V | 46.3 |
| E152I | -1.78 |
| A158G | -5.74 |

Series 4 — technique: RNA Bind-n-Seq; molecule type: RNA; medium: in vitro; tested at: 1 µM; notes: whole 134-nt RNA, ends assumed; added: 150 mM KCl; baseline: input library; direction: higher = stronger binding
Target: Ras GTPase-activating protein-binding protein 1, C-terminal RGG region (G3BP1, Homo sapiens, UniProt Q13283)
Chain of UniProt Q13283 (whole entry, looked up): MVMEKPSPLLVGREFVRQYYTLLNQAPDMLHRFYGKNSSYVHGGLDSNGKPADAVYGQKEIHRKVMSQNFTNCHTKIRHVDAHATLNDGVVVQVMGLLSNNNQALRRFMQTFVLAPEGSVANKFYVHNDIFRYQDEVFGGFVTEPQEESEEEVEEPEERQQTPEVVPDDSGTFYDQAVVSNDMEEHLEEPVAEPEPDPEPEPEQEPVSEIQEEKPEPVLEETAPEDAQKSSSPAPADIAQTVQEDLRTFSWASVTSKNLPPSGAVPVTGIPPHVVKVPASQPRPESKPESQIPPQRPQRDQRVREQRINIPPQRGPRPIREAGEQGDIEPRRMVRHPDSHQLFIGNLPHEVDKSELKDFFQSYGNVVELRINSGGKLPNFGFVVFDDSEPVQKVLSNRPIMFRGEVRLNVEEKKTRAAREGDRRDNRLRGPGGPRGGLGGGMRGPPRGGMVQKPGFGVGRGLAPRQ
All sequences stand within: GGGAGUUCUACAGUCCGACGAUC … UGGAAUUCUCGGGUGUCAAGG
| Strand | log2 enrichment |
| --- | --- |
| ACCAUGCAGGUGGGCAUCUUUGGGAAGUGGGGCAAGGGGUGGAUAGGGAGGGGGGUAACACUUUGGGAACAGGUGGUCCCAGGUCGUUUC | -1.07 |
| GCAGGAAGUAAAAACAAAUGGAAAUGCUUCGGAUAGUGGCAGGGGUGGGGGUUGCUAAGUAAAGGGUGGGAUGGGAGUGGGUAAAGAGUU | 1.82 |
| UGUGAAAGAAAACCGAAGUUUUAAAUGACUUCUCAUGGUUAUUUUUUUUCCUUUCUCUUGCAGGACAUUGGGGACACAUUGAGCAGGUAU | -0.489 |
| UGGGAGGUGGAUUUUGUUUAUUUUUUUAGUUCAUUUCCAGGGGUGGGAAUUUUUUUUUAAUAUGUGUCAUGAAUAAAGUUGUUUUUGAAA | 3.04 |
| CUCAAGUCCUGUGCUACACAUCGUAUGUACCGAAUCGGUUUGGAAAAAGGAGGAAAGUAUUAUGUUACGCCGUUCGGAUCUGCACUUCCA | -1.23 |
| UGUCUUUCCUGGUGACUAGGAUGUCGUCGGAGGAGGACAAGAGCGUGGAGCAGCCGCAGCCGCCGCCACCACCCCCCGAGGAGCCUGGAG | -1.15 |
| CACAGACAACACGCACCCAAACAGACACAGAGGGAAGGGGUUGGGAUGGGGACAGGGUGCACAGCAGGGCGGGGUAGGACCCCAGCCCCU | -0.318 |
| CACAGACAACACGCACCCACACAGACACAGAGGGAAGGGGUUGGGAUGGGGUCAGGGUGCACAGCAGGGCGGGGUAGGACCCCAGCCCCU | 0.0123 |
| UCAAGUCCUGUGCUACACAUCGUAUGUACCGAAUCGGGUUUGGGAAAGGGAGGGAAAGUAUUAUGUUACGCCGUUCGGAUCUGCACUUCC | 2.1 |
| AGUCCUGUGCUACACAUCGUAUGUACCGAAUCGGGAAAAAAAGGGAAAAAGGGUGGGAAAGUAUUAUGUUACGCCGUUCGGAUCUGCACU | 0.957 |
| GUCCUGUGCUACACAUCGUAUGUACCGAAUCGGGAAAAAAGGGAAAAAAGGAAAAAAGGAAAGUAUUAUGUUACGCCGUUCGGAUCUGCA | -1.58 |
| AAGUCCUGUGCUACACAUCGUAUGUACCGAAUCGGAAAAAGGUUUUUUUGGUUUGGAAAGUAUUAUGUUACGCCGUUCGGAUCUGCACUU | -2.41 |
| UCAAGUCCUGUGCUACACAUCGUAUGUACCGAAUCGGGGUUGGGGUUGGUUGGGGAAAGUAUUAUGUUACGCCGUUCGGAUCUGCACUUC | 0.386 |
| GUCCUGUGCUACACAUCGUAUGUACCGAAUCGGAAAAAAGGAAAAAAGGAAAAAAGGGGAAAGUAUUAUGUUACGCCGUUCGGAUCUGCA | -1.64 |

Series 5 — technique: protein binding microarray; molecule type: double-stranded DNA, one strand shown; medium: in vitro; tested at: not given; baseline: not given; direction: higher = stronger binding
Target: Histone acetyltransferase KAT6A, winged helix 2, GST fusion (KAT6A, Homo sapiens, UniProt Q92794, residues 85-181)
Notes: 8-mer, flanks averaged, mean of 2 arrays, mostly near background
Construct (chain): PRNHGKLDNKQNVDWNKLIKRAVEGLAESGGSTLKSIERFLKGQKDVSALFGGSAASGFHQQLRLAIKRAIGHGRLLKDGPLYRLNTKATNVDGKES
| Strand | E-score |
| --- | --- |
| GACTGCCA | 0.0149 |
| CTCGCCGC | 0.172 |
| ATGGACTA | -0.178 |
| GACTAACC | -0.0271 |
| CGAGGTAA | 0.0288 |
| ATAATCGA | 0.1 |
| CTTCTTTA | -0.0856 |
| CCCGATAA | -0.0807 |
| GGGCTTAC | 0.0202 |
| ACGGTTAG | -0.182 |
| GGAGGCAC | 0.117 |
| TGGCGACA | 0.0521 |
| AGGGACTG | -0.21 |
| ATTTGCCA | -0.0921 |
| ACGGACAT | -0.0964 |
| GCACGCCA | 0.0213 |
| AGTGGCGG | 0.122 |
| ATCTCCGA | 0.0334 |
| AACTGGGT | -0.0523 |
| GCGTGCAC | 0.103 |
| GTTTGCTA | 0.143 |
| AGTACACC | 0.00968 |
| ATACATAC | -0.246 |
| AATAAAAG | -0.0748 |
| CGACCCTC | 0.16 |

For quick reference, copied from above (series 5):
| Strand | E-score |
| --- | --- |
| GACTGCCA | 0.0149 |
| ACGGACAT | -0.0964 |
| GGGCTTAC | 0.0202 |
| CTTCTTTA | -0.0856 |
| ATGGACTA | -0.178 |
| GTTTGCTA | 0.143 |
| CGAGGTAA | 0.0288 |
| CGACCCTC | 0.16 |
| GGAGGCAC | 0.117 |
| ATACATAC | -0.246 |
